Experimental data of several laboratories.
Protocols differ between the studies behind these lines. Several values in a cell are separate wells, animals, samples, runs or records. ± marks the error that the study gave.
Alpha-amylase: Alpha-amylase (Bos taurus, UniProt Q3MHH8)
Trypanothione synthetase: Trypanothione synthetase (Trypanosoma brucei brucei, UniProt Q8IEX1)
FFAR4: Free fatty acid receptor 4 (FFAR4, Homo sapiens, UniProt Q5NUL3)
Chain of UniProt Q96D96 (whole entry, looked up): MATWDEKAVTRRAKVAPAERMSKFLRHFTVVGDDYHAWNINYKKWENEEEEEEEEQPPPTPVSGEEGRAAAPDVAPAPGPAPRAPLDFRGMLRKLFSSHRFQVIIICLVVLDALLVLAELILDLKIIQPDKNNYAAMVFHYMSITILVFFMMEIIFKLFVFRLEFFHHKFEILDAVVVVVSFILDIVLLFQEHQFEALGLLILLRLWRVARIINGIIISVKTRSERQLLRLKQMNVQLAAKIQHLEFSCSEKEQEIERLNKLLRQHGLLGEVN
Chain of UniProt Q5NUL3 (whole entry, looked up): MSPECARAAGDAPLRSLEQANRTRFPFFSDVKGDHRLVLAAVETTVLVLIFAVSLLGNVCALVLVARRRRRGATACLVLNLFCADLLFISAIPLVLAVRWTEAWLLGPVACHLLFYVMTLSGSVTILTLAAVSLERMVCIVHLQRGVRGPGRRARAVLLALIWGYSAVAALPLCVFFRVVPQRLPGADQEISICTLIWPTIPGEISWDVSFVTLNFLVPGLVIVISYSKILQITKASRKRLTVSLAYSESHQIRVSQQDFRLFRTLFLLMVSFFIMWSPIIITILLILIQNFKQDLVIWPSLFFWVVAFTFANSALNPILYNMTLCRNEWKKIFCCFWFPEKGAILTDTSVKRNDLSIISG
Chain of UniProt Q8IWT6 (whole entry, unmodified, looked up): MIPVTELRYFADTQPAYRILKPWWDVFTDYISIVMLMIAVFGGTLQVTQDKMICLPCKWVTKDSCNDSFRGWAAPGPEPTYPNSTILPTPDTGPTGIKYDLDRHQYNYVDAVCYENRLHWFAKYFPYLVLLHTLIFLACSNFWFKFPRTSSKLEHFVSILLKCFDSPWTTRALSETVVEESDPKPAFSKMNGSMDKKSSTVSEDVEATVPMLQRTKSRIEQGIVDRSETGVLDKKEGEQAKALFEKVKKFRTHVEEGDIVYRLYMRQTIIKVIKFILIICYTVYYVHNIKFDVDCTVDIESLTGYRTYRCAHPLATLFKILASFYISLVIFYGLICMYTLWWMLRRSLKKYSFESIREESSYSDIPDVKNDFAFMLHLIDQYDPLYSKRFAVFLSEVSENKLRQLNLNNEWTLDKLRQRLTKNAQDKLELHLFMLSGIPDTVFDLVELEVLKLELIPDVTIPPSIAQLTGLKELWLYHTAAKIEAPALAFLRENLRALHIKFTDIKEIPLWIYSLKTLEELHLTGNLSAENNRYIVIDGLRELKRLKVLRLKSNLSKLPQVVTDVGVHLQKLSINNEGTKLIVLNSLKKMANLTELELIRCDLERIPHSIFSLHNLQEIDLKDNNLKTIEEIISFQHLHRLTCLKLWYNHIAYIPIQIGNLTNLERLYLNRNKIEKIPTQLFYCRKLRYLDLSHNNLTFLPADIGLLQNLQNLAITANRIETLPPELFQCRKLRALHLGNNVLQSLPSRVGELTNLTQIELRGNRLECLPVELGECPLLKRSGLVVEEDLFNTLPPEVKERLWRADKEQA
Chain of UniProt Q93009 (whole entry, unmodified, looked up): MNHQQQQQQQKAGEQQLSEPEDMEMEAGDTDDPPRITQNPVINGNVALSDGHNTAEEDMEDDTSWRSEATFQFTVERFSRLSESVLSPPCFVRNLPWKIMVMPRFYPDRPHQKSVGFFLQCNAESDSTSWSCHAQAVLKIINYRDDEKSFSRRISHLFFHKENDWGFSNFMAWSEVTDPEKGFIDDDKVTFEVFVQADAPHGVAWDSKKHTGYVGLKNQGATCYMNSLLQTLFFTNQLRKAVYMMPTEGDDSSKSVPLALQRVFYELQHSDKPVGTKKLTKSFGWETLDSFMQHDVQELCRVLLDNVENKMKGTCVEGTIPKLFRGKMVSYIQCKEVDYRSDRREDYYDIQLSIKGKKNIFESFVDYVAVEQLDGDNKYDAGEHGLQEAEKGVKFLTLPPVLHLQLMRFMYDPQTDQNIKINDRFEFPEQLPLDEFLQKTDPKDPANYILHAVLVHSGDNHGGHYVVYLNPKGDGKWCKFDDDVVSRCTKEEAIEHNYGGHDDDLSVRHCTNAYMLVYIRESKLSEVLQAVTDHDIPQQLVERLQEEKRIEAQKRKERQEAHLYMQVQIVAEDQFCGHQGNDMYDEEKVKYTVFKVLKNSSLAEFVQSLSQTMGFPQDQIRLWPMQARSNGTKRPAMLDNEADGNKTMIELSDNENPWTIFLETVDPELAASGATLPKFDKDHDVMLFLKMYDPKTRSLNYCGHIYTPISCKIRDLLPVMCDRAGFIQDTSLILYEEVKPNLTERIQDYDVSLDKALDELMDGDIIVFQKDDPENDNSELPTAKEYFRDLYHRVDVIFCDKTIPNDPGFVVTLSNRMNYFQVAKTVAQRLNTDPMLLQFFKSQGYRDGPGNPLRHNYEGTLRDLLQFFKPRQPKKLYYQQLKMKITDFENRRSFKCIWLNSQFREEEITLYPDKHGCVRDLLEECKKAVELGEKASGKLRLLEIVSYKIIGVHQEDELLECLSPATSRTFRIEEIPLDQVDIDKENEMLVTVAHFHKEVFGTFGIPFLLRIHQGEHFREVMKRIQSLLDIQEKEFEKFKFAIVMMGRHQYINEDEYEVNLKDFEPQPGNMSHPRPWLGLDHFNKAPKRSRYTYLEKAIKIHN
Chain of UniProt P61073 (whole entry, looked up): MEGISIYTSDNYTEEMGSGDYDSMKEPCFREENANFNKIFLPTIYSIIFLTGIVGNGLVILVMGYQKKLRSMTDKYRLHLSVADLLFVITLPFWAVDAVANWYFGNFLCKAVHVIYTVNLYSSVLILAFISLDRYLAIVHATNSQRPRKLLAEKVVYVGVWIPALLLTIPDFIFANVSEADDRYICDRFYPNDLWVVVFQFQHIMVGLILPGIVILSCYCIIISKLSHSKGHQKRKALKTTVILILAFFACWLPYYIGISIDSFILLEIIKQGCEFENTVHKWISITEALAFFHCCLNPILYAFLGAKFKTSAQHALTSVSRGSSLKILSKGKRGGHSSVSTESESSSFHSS
Chain of UniProt O60307 (whole entry, looked up): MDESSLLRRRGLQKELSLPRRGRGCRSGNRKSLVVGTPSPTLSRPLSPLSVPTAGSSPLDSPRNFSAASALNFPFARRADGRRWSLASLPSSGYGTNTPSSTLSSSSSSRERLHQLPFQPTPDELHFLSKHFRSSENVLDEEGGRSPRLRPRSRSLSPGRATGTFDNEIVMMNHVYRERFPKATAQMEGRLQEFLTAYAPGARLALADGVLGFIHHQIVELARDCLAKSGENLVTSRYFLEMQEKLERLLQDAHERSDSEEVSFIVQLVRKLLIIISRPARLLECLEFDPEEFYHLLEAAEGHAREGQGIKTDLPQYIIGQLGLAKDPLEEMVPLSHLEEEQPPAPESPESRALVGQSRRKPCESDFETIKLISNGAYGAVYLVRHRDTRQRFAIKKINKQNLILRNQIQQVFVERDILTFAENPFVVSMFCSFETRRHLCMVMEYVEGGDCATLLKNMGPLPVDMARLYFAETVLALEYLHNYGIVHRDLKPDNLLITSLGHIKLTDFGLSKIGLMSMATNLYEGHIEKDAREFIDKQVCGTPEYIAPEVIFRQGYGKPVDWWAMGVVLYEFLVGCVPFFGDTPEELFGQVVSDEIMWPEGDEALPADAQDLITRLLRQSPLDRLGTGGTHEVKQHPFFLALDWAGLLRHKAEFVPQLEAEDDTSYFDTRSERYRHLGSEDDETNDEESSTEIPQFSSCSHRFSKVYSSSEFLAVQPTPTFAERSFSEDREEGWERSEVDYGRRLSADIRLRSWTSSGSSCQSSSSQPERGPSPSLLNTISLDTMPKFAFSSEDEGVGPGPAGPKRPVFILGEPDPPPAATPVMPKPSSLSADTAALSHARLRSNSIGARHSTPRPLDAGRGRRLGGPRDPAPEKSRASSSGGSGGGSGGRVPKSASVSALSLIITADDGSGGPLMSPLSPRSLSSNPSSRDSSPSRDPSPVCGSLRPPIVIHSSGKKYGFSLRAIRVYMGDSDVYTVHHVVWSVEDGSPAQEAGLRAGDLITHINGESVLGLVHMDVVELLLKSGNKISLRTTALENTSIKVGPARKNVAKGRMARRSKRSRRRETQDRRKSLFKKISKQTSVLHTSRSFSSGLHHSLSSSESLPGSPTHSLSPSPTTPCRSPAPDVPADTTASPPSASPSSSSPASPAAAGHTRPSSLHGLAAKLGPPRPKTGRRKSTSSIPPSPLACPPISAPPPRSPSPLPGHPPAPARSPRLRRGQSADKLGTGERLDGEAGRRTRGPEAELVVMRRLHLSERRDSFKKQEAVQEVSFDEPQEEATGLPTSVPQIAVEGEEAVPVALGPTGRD
Chain of UniProt Q70EK9 (whole entry, looked up): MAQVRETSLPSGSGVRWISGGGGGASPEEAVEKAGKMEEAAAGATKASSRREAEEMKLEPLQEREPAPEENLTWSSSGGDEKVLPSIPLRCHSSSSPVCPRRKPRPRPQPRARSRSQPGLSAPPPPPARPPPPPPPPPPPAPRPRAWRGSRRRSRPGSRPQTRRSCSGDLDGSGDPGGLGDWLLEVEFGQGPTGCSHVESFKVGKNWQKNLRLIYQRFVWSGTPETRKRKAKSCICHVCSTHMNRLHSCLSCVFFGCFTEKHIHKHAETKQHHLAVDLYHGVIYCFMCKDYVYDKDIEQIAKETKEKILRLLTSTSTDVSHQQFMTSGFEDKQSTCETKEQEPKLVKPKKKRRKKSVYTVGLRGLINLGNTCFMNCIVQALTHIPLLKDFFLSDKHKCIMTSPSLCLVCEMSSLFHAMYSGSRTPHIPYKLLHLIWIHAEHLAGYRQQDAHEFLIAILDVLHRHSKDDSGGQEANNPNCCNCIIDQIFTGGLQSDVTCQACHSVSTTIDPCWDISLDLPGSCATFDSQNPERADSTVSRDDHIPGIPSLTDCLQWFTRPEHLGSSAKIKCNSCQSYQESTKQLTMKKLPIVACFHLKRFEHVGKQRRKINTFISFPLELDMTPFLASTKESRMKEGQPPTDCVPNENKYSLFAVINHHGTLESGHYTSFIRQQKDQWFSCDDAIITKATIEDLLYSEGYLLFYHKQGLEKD

Compound = C=C1C(=O)O[C@@H]2[C@H]3O[C@]3(C)CC/C=C(\C)CC[C@@H]12; target = USP51 (Homo sapiens, UniProt Q70EK9); assay = deubiquitinase activity, inhibitor; conditions = 5 µM, 1 h preincubation, together with: 250 nM Ub-AMC; inhibition = 27%
Compound = CC1=NN(c2cccc(C)c2)C(=O)C1=NNc1ccc(S(N)(=O)=O)cc1; target = Alpha-amylase; assay = enzyme activity, inhibitor, glucose oxidase; conditions = 200 µg/mL, together with: dextrin; inhibition = 22.3%
Compound = [2H]c1cc(C)c(NC(=O)c2cnc(Nc3cc(N4CCC(O)CC4)nc(C)n3)s2)c(Cl)c1; target = BMX (Homo sapiens, UniProt P51813); conditions = 0.001 µM; inhibition = > 50%
Compound = NCCCCNC(=O)CN1C(=O)Cc2c([nH]c3ccc(Br)cc23)-c2ccc(Cl)cc21; target = Trypanothione synthetase; assay = enzyme activity, inhibitor, BIOMOL Green; conditions = 30 µM; inhibition = 10.8 ± 2.2%
Compound = CC1=NNC(=O)C1=NNc1ccc(S(N)(=O)=O)cc1; target = Alpha-amylase; assay = enzyme activity, inhibitor, glucose oxidase; conditions = 10 µg/mL, together with: dextrin; inhibition = 8.6372 ± 0.000273%
Compound = [2H]c1cc(C)c(NC(=O)c2cnc(Nc3cc(N4CCCCC4)nc(C)n3)s2)c(Cl)c1; target = WNK3 (Homo sapiens, UniProt Q9BYP7); conditions = 0.01 µM; inhibition = < 30%
Compound = CCN1CCN(Cc2ccc(NC(=O)c3ccc(C)c(/C=C/c4cnc5[nH]ccc5c4OC)c3)cc2C(F)(F)F)CC1; target = MAST3 (Homo sapiens, UniProt O60307); system = A-375; conditions = 0.05 µM; inhibition = -14.2%
Compound = O=C(Nc1cccc2c(=O)cc(-c3nnn[nH]3)oc12)c1ccc(OCCCCc2ccccc2)cc1; target = LRRC8A/LRRC8C (Homo sapiens, UniProt Q8IWT6+Q8TDW0, L134K/L136K); assay = ion current, whole-cell patch clamp; system = HCT LRRC8-/- cells; conditions = 0.3 µM, -100 mV, L134K/L136K heteromers; inhibition = 20.2% and 18.5% and 4.59% and 15.9% and 23.9% and -6.42%
Compound = Cc1ccc(C(=O)Nc2ccc3ccccc3c2)o1; target = HVCN1 (Homo sapiens, UniProt Q96D96); assay = ion current, inhibitor, whole-cell patch clamp; conditions = 10 µM; inhibition = 12.1% and 9.52% and 0.7% and 4.83% and 7.22%
Compound = O=c1cc(NCCc2ccccc2)[nH]c(=O)[nH]1; target = FFAR4; assay = antagonist, β-arrestin recruitment; system = CHO cells; conditions = 10 µM, together with: 4 µM TUG-891; inhibition = 21 ± 9%
Compound = CC1=NN(c2ccccc2)C(=O)C1=NNc1ccc(S(N)(=O)=O)cc1; target = Alpha-amylase; assay = enzyme activity, inhibitor, glucose oxidase; conditions = 100 µg/mL, together with: dextrin; inhibition = 23%
Compound = CCCCCCCCCCNc1cc(=O)[nH]c(=O)[nH]1; target = FFAR4; assay = antagonist, β-arrestin recruitment; system = CHO cells; conditions = 10 µM; inhibition = 32 ± 9%
Compound = CC1=NNC(=S)NC(=O)C1/N=N/c1ccc(S(N)(=O)=O)cc1 (stereo not drawn); target = Alpha-amylase; assay = enzyme activity, inhibitor, glucose oxidase; conditions = 50 µg/mL, together with: dextrin; inhibition = 13.8%
Compound = NC/C(=C\F)COc1cccc(Cn2c(=S)[nH]c(=O)c3[nH]cnc32)c1; target = rat thyroid hormone receptor; assay = radioligand binding; conditions = 10 µM; inhibition = < 50%
Compound = CC1=NOC(=O)C1=NNc1ccc(S(N)(=O)=O)cc1; target = Alpha-amylase; assay = enzyme activity, inhibitor, glucose oxidase; conditions = 200 µg/mL, together with: dextrin; inhibition = 35.9%
Compound = O=c1cc(NCCCCc2ccccc2)[nH]c(=O)[nH]1; target = FFAR4; assay = antagonist, β-arrestin recruitment; system = CHO cells; conditions = 10 µM; inhibition = 21 ± 3%
Compound = COC(=O)CN1C(=O)Cc2c([nH]c3ccc(Br)cc23)-c2ccc(Cl)cc21; target = Trypanothione synthetase; assay = enzyme activity, inhibitor, BIOMOL Green; conditions = 30 µM; inhibition = 17.1 ± 4%
Compound = CN(C(=O)n1cnc(-c2ccc[n+]([O-])c2)c1)C1CCCCC1; target = Adra1b (Rattus norvegicus, UniProt P15823); conditions = 10 µM; inhibition = 3.12%
Compound = CC1=NN(c2ccc(Cl)cc2)C(=O)C1=NNc1ccc(S(N)(=O)=O)cc1; target = Alpha-amylase; assay = enzyme activity, inhibitor, glucose oxidase; conditions = 500 µg/mL, together with: dextrin; inhibition = 14.4%
Compound = CN1CCN(c2cc(-c3ccncc3)c(-c3ccc4ccccc4c3)nn2)CC1; target = GIPR (Homo sapiens, UniProt P48546); assay = antagonist, FLIPR; conditions = 10 µM; inhibition = -8.5%
Compound = O=c1cc(NCCc2ccccc2Cl)[nH]c(=O)[nH]1; target = FFAR4; assay = antagonist, β-arrestin recruitment; system = CHO cells; conditions = 10 µM, together with: 4 µM TUG-891; inhibition = 9 ± 2%
Compound = COc1cc(C(=O)NS(=O)(=O)c2ccccc2C)ccc1Cc1cn(C)c2ccc(NC(=O)OC3CCCC3)cc12; target = LRRC8A/LRRC8C (Homo sapiens, UniProt Q8IWT6+Q8TDW0, M48D/T48D); assay = ion current, inhibitor, whole-cell patch clamp; system = HCT116 LRRC8 knockout, transfected; conditions = 100 µM, +100 mV, mutant T48D/M48D; inhibition = 71.5%
Compound = CC[C@@H]1[C@H](F)C(=O)N[C@@H]1COc1nccc2cc(C(N)=O)c(OC)cc12; target = CAMKK2 (Homo sapiens, UniProt Q96RR4); assay = ATP-site probe binding, ActivX profiling; system = THP-1 cell lysate; conditions = 0.2 mM, Lys2 site; inhibition = 8.1%
Compound = CC1=NN(c2ccccn2)C(=O)C1=NNc1ccc(S(N)(=O)=O)cc1; target = Alpha-amylase; assay = enzyme activity, inhibitor, glucose oxidase; conditions = 200 µg/mL, together with: dextrin; inhibition = 13.1%
Compound = CCc1ccc(OCc2nnc(SCc3nc(CC(C)C)no3)n2Cc2ccccc2)cc1; target = CXCR4 (Homo sapiens, UniProt P61073); assay = arrestin recruitment, antagonist, DiscoverX arrestin; conditions = 30 µM; how to read = baseline: control; inhibition = 0.06% and -0.47%
Compound = O=c1cc(NCCc2cccs2)[nH]c(=O)[nH]1; target = FFAR4; assay = antagonist, β-arrestin recruitment; system = CHO cells; conditions = 10 µM; inhibition = -19 ± 8%
Compound = Cn1cc(-c2cnc3ccc(NC(=O)Nc4ccc(F)c(Br)c4)cc3n2)cn1; target = MAP3K12 (Homo sapiens, UniProt Q12852); assay = kinase binding, KiNativ profiling, refers to: Lys2 peptide; system = PANC-1 lysate; conditions = 7.5 µM; inhibition = 1.6%
Compound = O=c1cc(NCCCCCCCO)[nH]c(=O)[nH]1; target = FFAR4; assay = antagonist, β-arrestin recruitment; system = CHO cells; conditions = 10 µM, together with: 4 µM TUG-891; inhibition = 11 ± 2%
Compound = COc1cc(C(=O)OCCCN2CCCN(CCCOC(=O)c3cc(OC)c(OC)c(OC)c3)CC2)cc(OC)c1OC; target = Equilibrative nucleoside transporter 2 (Homo sapiens, UniProt Q14542); assay = nucleoside transport, inhibitor; system = MDCKII cells expressing ENT2; conditions = 79.4 µM, together with: adenosine; inhibition = 95.6% and 95.8%
Compound = O=c1[nH]c(NCCCc2ccccc2)c(Br)c(=O)[nH]1; target = FFAR4; assay = antagonist, β-arrestin recruitment; system = CHO cells; conditions = 10 µM; inhibition = 14 ± 1%
Compound = O=C(C[C@@H](C(F)F)n1ccc(F)n1)N1CCC(O)(Cn2cnc3c(cnn3-c3ccc(F)cc3)c2=O)CC1; target = USP7 (Homo sapiens, UniProt Q93009, V517F); assay = enzyme activity, inhibitor; conditions = 0.005 µM; inhibition = 9.71% and 9.05%
Compound = O=c1cc(NCCc2ccccc2F)[nH]c(=O)[nH]1; target = FFAR4; assay = antagonist, β-arrestin recruitment; system = CHO cells; conditions = 10 µM, together with: 4 µM TUG-891; inhibition = 15 ± 4%
Compound = O=C(O)C1=CC(=C(c2ccc(O)c(C(=O)O)c2)c2ccc(O)c(C(=O)O)c2)C=CC1=O; target = P2X purinoceptor 3 (P2RX3, Homo sapiens, UniProt P56373); assay = ion current, antagonist, patch clamp; system = HEK293; conditions = 400 nM, together with: ATP4- 1 µM; inhibition = 29.9 ± 4.1%

A few entries again:
Compound = CC1=NN(c2ccc(Cl)cc2)C(=O)C1=NNc1ccc(S(N)(=O)=O)cc1; target = Alpha-amylase; assay = enzyme activity, inhibitor, glucose oxidase; conditions = 500 µg/mL, together with: dextrin; inhibition = 14.4%
Compound = O=c1cc(NCCCCc2ccccc2)[nH]c(=O)[nH]1; target = FFAR4; assay = antagonist, β-arrestin recruitment; system = CHO cells; conditions = 10 µM; inhibition = 21 ± 3%
